Experimental data collected from several papers.
Protocols differ between the studies behind these lines. ± marks the error that the study gave.
Cell line: A549

| SMILES | observed | method | time | notes | added | IC50 |
| --- | --- | --- | --- | --- | --- | --- |
| COc1cc(C(=O)c2[nH]c(N)nc2-c2cccnc2)cc(OC)c1OC | cell growth or viability | SRB | 24 h | – | – | 0.307 µM |
| C=C1C(=O)[C@@]23CC[C@@H]4[C@](C)(COC(C)=O)CCC[C@@]4(CO)[C@@H]2[C@@H](O)C[C@@H]1C3 | cell growth or viability | MTT | – | – | – | > 20 µM |
| COC(=O)[C@H](C(C)C)N(C)C(=O)[C@@H]1CCCN1C(=O)[C@H](C)N(C)C(=O)OC(C)(C)C | cell growth or viability | SRB | – | – | – | 6 µM |
| C[O][Pt-2]1([Cl])([Cl])([O]C(=O)CCC(=O)O)[NH2+]CC[N+]1(C)C | cell growth or viability | MTT | 96 h | – | – | > 250 µM |
| COc1ccc(C2C([N+](=O)[O-])C(Cc3ccc(O)cc3)NC23C(=O)c2cccc4cccc3c24)cc1 (centres unmarked) | cell growth or viability | MTT | 48 h | – | – | 68.2 µM |
| O=C(CN1C(=O)NC(c2ccccc2)(c2ccccc2)C1=O)N/N=C/c1ccccc1 | cell growth or viability | resazurin | 24 h | – | – | 350 µM |
| CC(=O)[O-].O.[Cu+2].[O-]c1ccc(Br)cc1C=NCCN1CCOCC1 | cell viability | MTT | 72 h | – | – | 21.4 µg/mL |
| COc1ccc(C2=NN(C3=NC(=O)/C(=C/c4ccccc4)S3)C(c3ccc(F)cc3)C2)cc1 (centres unmarked) | cell growth or viability | MTT | – | – | – | > 100 µM |
| O=C(NN=Cc1ccc(O)cc1)Nc1cc2c(Nc3ccc(F)c(Cl)c3)ncnc2cc1OC1CCOC1 (centres unmarked) | cell growth or viability | MTT | 72 h | – | – | 1.32 µM |
| COc1cc(OC)c(/C=C/C(=O)c2c(OC)cc(OC)cc2OC)c(OC)c1 | cell growth or viability | MTT | 48 h | – | – | > 100 µM |
| CCN(CC)CCO/N=C1/C=C2CCC3C(CC[C@]4(C)/C(=C/c5ccccn5)CCC34)[C@@]2(C)CC1 (some centres unmarked) | cell growth or viability | MTT | 72 h | – | – | 26.6 µM |
| C=CC(=O)Nc1cc(Nc2nccc(-c3c(-c4cccc(F)c4)n(C)c4ccccc34)n2)c(OC)cc1N(C)CCN(C)C | cell growth or viability | MTT | 72 h | – | – | 0.433 µM |
| Cc1c(-c2cccc(C3=NCCN3)c2)oc(-c2cccc(C3=NCCN3)c2)c1C | cell growth or viability | SRB | – | – | – | 0.3 µM |
| CC1=CC(C)=[N+]2C1=C(CO)c1c(C)cc(C)n1[B-]2(C)C | phototoxicity | resazurin | – | – | 645 nm light, 9.00 J/cm2 | > 100 µM |
| CC(C)c1cccc(C(C)C)c1[N+]#[C][Pt-]([Cl])([Cl])=[C](Nc1ccc(CN[C](Nc2c(C(C)C)cccc2C(C)C)=[Au][Cl])cc1)Nc1c(C(C)C)cccc1C(C)C | cell growth or viability | – | – | – | – | > 100 µM |
| [Cl-].[Cl-].[Ru+2].c1ccc(-c2ccnc3c2ccc2c(-c4ccccc4)ccnc23)cc1.c1cnc2c(c1)ccc1cccnc12.c1cnc2c(c1)ccc1cccnc12 | cell growth or viability | – | 72 h | dark | – | 11.8 µM |
| COCC12CCC(OC)C34C5CC6(O)C(O)C5C(O)(C(O)C6OC)C(CC13)C4N(C)C2 (centres unmarked) | cell growth or viability | MTT | – | – | – | 18.2 µM |
| CC(C)=CCC1=C([O-])C(=O)c2ccccc2C1=O.O=[N+]([O-])[O-].[Cu+2].c1ccc(-c2cccc(-c3ccccn3)n2)nc1 | cell viability | MTT | 24 h | – | – | > 50 µM |
| COc1ccc(NC(=O)c2ccc(NC(=O)CN3C(=O)S/C(=C\c4ccccc4OC)C3=O)cc2)cc1 | cell growth or viability | MTT | – | – | – | 24.8 µM |
| S=c1n(-c2ccccc2)c2c3ccccc3nc3[n+]2[n]1[Ir-3]12([S]3)([c]3ccccc3-c3sc4ccccc4[n+]31)[c]1ccccc1-c1sc3ccccc3[n+]12 | cell viability | MTT | – | irradiation 450 nm, 15.5 mW/cm^2, 15 min | – | 0.014 ± 0.001 µM |
| CC(C)c1cccc(C(C)C)c1[N+]#[C][Pd-]([Cl])([Cl])=[C](Nc1cccc(CN[C](Nc2c(C(C)C)cccc2C(C)C)=[Au][Cl])c1)Nc1c(C(C)C)cccc1C(C)C | cell growth or viability | – | – | – | – | 12 µM |

| SMILES | observed | method | time | notes | added | IC50 |
| --- | --- | --- | --- | --- | --- | --- |
| Cc1ccc(C(C)C)cc1.O=C(N=P(c1ccccc1)(c1ccccc1)c1ccccc1)c1ccccn1.[Cl-].[Cl-].[Ru+2] | cell growth or viability | MTT | 24 h | – | – | 9.5 µM |
| Cn1c2ccc(Cl)c(=O)c-2nc2ccccc21 | cell growth or viability | CCK-8 | 72 h | – | – | 0.76 µM |
| C[C@H]1[C@H](C)CC[C@]2(C)CC[C@]3(C)C(=CC(=O)[C@@H]4[C@@]5(C)CC[C@@H](O)[C@](C)(C(=O)NCCNC(=O)c6ccccc6)[C@@H]5CC[C@]43C)[C@H]12 | cell growth or viability | MTT | 48 h | – | – | > 30 µM |
| O=C(Cc1ccccc1)NC(=S)Nc1nccs1 | cell growth or viability | MTT | 48 h | – | – | 57.5 µM |
| Cl.[Cl][Ru-]1[S+]=C(N2CCCC2)N[N+]1=Cc1ccc(N(c2ccccc2)c2ccccc2)cc1.c1ccccc1 | cytotoxicity | MTT | 24 h | – | – | 7.24 ± 5.4 µM |
| CC(C)(C)N=[C](NCc1ccc(N)cc1)[AuH][Cl] | cell growth or viability | – | – | – | – | > 100 µM |
| Cc1cc(/C=C/C#N)cc(C)c1Oc1cc(Nc2ccc(C#N)cn2)nc2ccncc12 | – | – | 48 h | – | – | > 120 µM |
| O=C1c2cccc[c]2[Au-]([Cl])([Cl])[N+]1=P(c1ccccc1)(c1ccccc1)c1ccccc1 | cell growth or viability | MTT | 24 h | – | – | 85.3 µM |
| N#Cc1c(F)c(Cl)c2nc(SCc3ccccc3)nc(N)c2c1F | cell growth or viability | MTT | 96 h | – | – | 65 µM |
| C=CC(=O)Nc1cc(Nc2nccc(-c3c(-c4ccc(C(F)(F)F)cc4)n(C)c4ccccc34)n2)c(OC)cc1N(C)CCN(C)C | cell growth or viability | MTT | 72 h | – | – | 0.414 µM |
| COc1ccc(/N=N/C(=S)N2CCCCC2)cc1 | cell growth or viability | resazurin | 48 h | – | – | > 50 µM |
| COc1ccc2c(c1)c(C)c1c(-c3ccccc3)c(S(=O)(=O)c3ccc(C)cc3)c3ccccc3n12 | cell growth or viability | MTT | 72 h | – | – | 14.6 µM |
| CCOC(=O)/C(=N\Nc1ccc(S(=O)(=O)Nc2ncccn2)cc1)C(=O)c1ccccc1 | cell growth or viability | MTT | 48 h | – | – | 11.2 µM |
| Nc1ncnc2c1C(c1cccs1)C1=C(CCCC1=O)O2 (centres unmarked) | cell growth or viability | MTT | 72 h | – | – | 46 µM |
| O=C(/C=C/c1ccc2c(c1)C(=O)N(CCCc1ccccc1)CC2)NO | cell growth | SRB | 72 h | – | – | 2.28 ± 1 µM |
| N#Cc1cccc(-c2ccc(=O)n(Cc3cccc(-c4ncc(OCC5CCN(CCCCC(=O)Nc6cccc7c6C(=O)N(C6CCC(=O)NC6=O)C7=O)CC5)cn4)c3)n2)c1 (centres unmarked) | cell growth or viability | CCK-8 | 72 h | – | – | 0.413 µM |
| COc1c(O)cc2oc3c(Br)c(O)c(CCC(C)C)c(O)c3c(=O)c2c1CCC(C)C | cell growth or viability | – | 48 h | – | – | 16.2 µM |
| CCCCCCC(=O)NCCNC(=O)[C@@]1(C)[C@H](O)CC[C@@]2(C)[C@H]1CC[C@]1(C)[C@@H]2C(=O)C=C2[C@@H]3[C@@H](C)[C@H](C)CC[C@]3(C)CC[C@]21C | cell growth or viability | MTT | 48 h | – | – | 19.5 µM |
| N#Cc1cccc(-c2ccc(=O)n(Cc3cccc(-c4ncc(OCC5CCN(CC(=O)NCCOCCOCCOCCNc6ccc7c(c6)C(=O)N(C6CCC(=O)NC6=O)C7=O)CC5)cn4)c3)n2)c1 (centres unmarked) | cell growth or viability | CCK-8 | 72 h | – | – | 0.433 µM |
| CNC(=O)c1c(C)oc2cc(Oc3ncnc4cc(OC)c(OCCCCCCC(=O)NO)cc34)ccc12 | cell growth or viability | CCK-8 | 48 h | – | – | 4.59 µM |

Some of these lines once more:
| SMILES | observed | method | time | notes | added | IC50 |
| --- | --- | --- | --- | --- | --- | --- |
| COc1ccc2c(c1)c(C)c1c(-c3ccccc3)c(S(=O)(=O)c3ccc(C)cc3)c3ccccc3n12 | cell growth or viability | MTT | 72 h | – | – | 14.6 µM |
| CCOC(=O)/C(=N\Nc1ccc(S(=O)(=O)Nc2ncccn2)cc1)C(=O)c1ccccc1 | cell growth or viability | MTT | 48 h | – | – | 11.2 µM |
| Nc1ncnc2c1C(c1cccs1)C1=C(CCCC1=O)O2 (centres unmarked) | cell growth or viability | MTT | 72 h | – | – | 46 µM |
| O=C(/C=C/c1ccc2c(c1)C(=O)N(CCCc1ccccc1)CC2)NO | cell growth | SRB | 72 h | – | – | 2.28 ± 1 µM |
| N#Cc1cccc(-c2ccc(=O)n(Cc3cccc(-c4ncc(OCC5CCN(CCCCC(=O)Nc6cccc7c6C(=O)N(C6CCC(=O)NC6=O)C7=O)CC5)cn4)c3)n2)c1 (centres unmarked) | cell growth or viability | CCK-8 | 72 h | – | – | 0.413 µM |
| COc1c(O)cc2oc3c(Br)c(O)c(CCC(C)C)c(O)c3c(=O)c2c1CCC(C)C | cell growth or viability | – | 48 h | – | – | 16.2 µM |
| CCCCCCC(=O)NCCNC(=O)[C@@]1(C)[C@H](O)CC[C@@]2(C)[C@H]1CC[C@]1(C)[C@@H]2C(=O)C=C2[C@@H]3[C@@H](C)[C@H](C)CC[C@]3(C)CC[C@]21C | cell growth or viability | MTT | 48 h | – | – | 19.5 µM |
